Results pooled from the literature.
A part holds a random share of what one study measured.

Sample 1 — technique: RNA Bind-n-Seq; form: RNA; sample: in vitro; concentration: 200 nM; notes: whole 134-nt RNA, ends assumed; with: 150 mM LiCl; relative to: input library; reading: higher = stronger binding; each molecule: 7-deaza-guanosine replaces G
Target: Fragile X messenger ribonucleoprotein 1, C-terminal low-complexity region (Fmr1, Mus musculus, UniProt P35922)
All sequences stand within: GGGAGUUCUACAGUCCGACGAUC … UGGAAUUCUCGGGUGUCAAGG
With `GCAGGAAUUAAAAACAAAUGGAAAUGCUUCGGAUAGUGGCAGGGGUGGGGGUUGCUAAGGAAAGGGUGGGAUGGGAGUGGGUAAAGAGUU` the log2 enrichment was 1.72.
For `AGUCCUGUGCUACACAUCGUAUGUACCGAAUCGGGAAAAGGAAAAGGGGAAAAGGGGAAAGUAUUAUGUUACGCCGUUCGGAUCUGCACU`, the log2 enrichment was -0.678.
The log2 enrichment of `CCUGUGCUACACAUCGUAUGUACCGAAUCGGGGCCCCCCGGGCCCCCCGGCCCCCCGGGGAAAGUAUUAUGUUACGCCGUUCGGAUCUGC` is reported as -1.01.
`AGUCCUGUGCUACACAUCGUAUGUACCGAAUCGGGGUUUGGGGAAAAAGGGGAGGGGAAAGUAUUAUGUUACGCCGUUCGGAUCUGCACU` has a log2 enrichment of -0.244.
The log2 enrichment of `ACCAUGCAGGUGGGCAUCUUUGGGAAGUGGGGCAAGGGGGGGAUAGUGAGGGGGGUAACACUUUGGGAACAGGUGGUCCCAGGUCGUUUC` is reported as 1.34.
The log2 enrichment of `AGUCCUGUGCUACACAUCGUAUGUACCGAAUCGGGGUUUGGGGUUUUUGGGGAGGGGAAAGUAUUAUGUUACGCCGUUCGGAUCUGCACU` is reported as -0.235.
`CCUGUGCUACACAUCGUAUGUACCGAAUCGGGGUUUUUUGGGGUUUUUUGGGGUUUUUUGGAAAGUAUUAUGUUACGCCGUUCGGAUCUG` gave a log2 enrichment of 0.898.
`UCCUGUGCUACACAUCGUAUGUACCGAAUCGGCCCCCCGGGCCCCCCGGGGCCCCCCGGGAAAGUAUUAUGUUACGCCGUUCGGAUCUGC` gave a log2 enrichment of -1.74.
The log2 enrichment of `CAAGUCCUGUGCUACACAUCGUAUGUACCGAAUCGGGUUUGGGUUUUUGGGAGGGAAAGUAUUAUGUUACGCCGUUCGGAUCUGCACUUC` is reported as -0.52.
With `GCAGGAAGUAAAAACAAAUGGAAAUGCUUCGGAUAGUGGCAGGGGUGGGGGUUGCUAAGGAAAGGGUGGGAUGGGAGUGGGUGAAGAGUU` the log2 enrichment was 1.42.
With `UGGGAGGUGGAUUUUGUUUAUUUUUUUAGCUCAUUUCCAGGGGUGGGAAUUUUUUUUUAAUCUGUGUCAUGAAUAAAGUUGUUUUUGAAA` the log2 enrichment was 0.0328.

Sample 2 — technique: RNA Bind-n-Seq; form: RNA; sample: in vitro; concentration: 365 nM; relative to: no-protein control; reading: higher = stronger binding
Target: RNA binding protein fox-1 homolog 2, RRM domain, GST-SBP tag (RBFOX2, Homo sapiens, UniProt O43251-10, residues 100-194)
Notes: natural RNA segment, single round, ends assumed
All sequences stand within: GGGAGUUCUACAGUCCGACGAUC … UGGAAUUCUCGGGUGCCAA
Construct (chain): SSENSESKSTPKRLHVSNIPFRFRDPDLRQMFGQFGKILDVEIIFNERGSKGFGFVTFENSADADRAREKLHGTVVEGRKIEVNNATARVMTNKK
For `GGGCUGGGGGUCAGUCCAGCCCGGGCCUCCCAGAACACCAGGCCCGUGUGGGUGGCACCCUGAGGUCAGGGGAUCCUAAGGGUGUCCUUCCAGAGACGGUGUUUCCAGGG`, “RBNS enrichment (R)” read 0.806.
Under “RBNS enrichment (R)”, `UUAUAUCAUUCUGGGUGUGUUCUUACUGACACCAGGGGUCCGCUGCCCCAUGUGUCCUGGUGAGAAAAUAUAUGCCUGGCACAGCUUUUGUAUAGAAAAUUCUUGAGAAG` is recorded as 0.448.
Under “RBNS enrichment (R)”, `GUGGAAAGUCAAGGUUUGUGUCUUUUCUACUGAGGUCUCAGAAAGAGAGAGAACAUCUCUCCGGACCCCCUGACUCAGAGCCUCGUGGCCCGGCAUCCCUUAGCCUCUAU` is recorded as 0.408.
For `CCAUCAAGAACCAAGUUCACCUUCAGCUCCUGUGGCCCCGCCCCCAGGCUGGAGUCAGAAAUGUUUCCCAAAGAGUGAGUCUUUUGCUUUUGGCAAAACGCUACUUAAUC`, “RBNS enrichment (R)” read 0.181.
`UUUGAUAAACACUGAAGAAGCUGGAGCUGUUAAAUUUAUCUUGGGGAAAUCUCAGAACUGGUUUAUUUGGUGUCGUGGAACCUCUUACCGCUUUCAAUACACAAUUAGUA`: “RBNS enrichment (R)” 0.735.
`GAAGGUUUAGUUUCCUUGAAGGAAACUACAGAAAAGGAAAGAAGCAGAAUGAGAAAGGAAUGGUACUUAGGUGUUUGGUAUGCUGCUCACGUGAAGUCAGCCCACACCAG` — result for “RBNS enrichment (R)”: 1.
Under “RBNS enrichment (R)”, `UGUACUCUGAAUUUUCAGGAACCGUCAAAGGAGCAGCAGCAAAUUCACAUAUUUUCGACUUGAGAAAUGCUUGUGGUAUGUGUUUUCCAAACUGCCCCCUAUAUGUAAAG` is recorded as 0.821.
Under “RBNS enrichment (R)”, `GCUCAUCCACCUUCACACCACUUGUGAGCUGACCCCCAGGAACAGCUUGGCUGUUCCACCAGAGCAGAGGGAAUCAUUGCUGGACUGGAUUUCUUCUGGAGGGAAGCACC` is recorded as 0.292.
Under “RBNS enrichment (R)”, `GUGUGUACACAUACACAUUUGAGAUUGUAUGAGAACAUAUAAUCCAUAUGAUAUGUUGUACAUUUUAUGGAAAUGUAAUAGAAUCUCACACAUUAUUUUAUAGAAAUAGA` is recorded as 0.884.

Sample 3 — technique: RNA Bind-n-Seq; form: RNA; sample: in vitro; concentration: 100 nM; relative to: input RNA pool; reading: higher = stronger binding
Target: RING finger protein unkempt homolog, zinc fingers 1-6, SBP tag (UNK, Homo sapiens, UniProt Q9C0B0, residues 30-357)
Sequence of UniProt Q9C0B0 (30-357, looked up): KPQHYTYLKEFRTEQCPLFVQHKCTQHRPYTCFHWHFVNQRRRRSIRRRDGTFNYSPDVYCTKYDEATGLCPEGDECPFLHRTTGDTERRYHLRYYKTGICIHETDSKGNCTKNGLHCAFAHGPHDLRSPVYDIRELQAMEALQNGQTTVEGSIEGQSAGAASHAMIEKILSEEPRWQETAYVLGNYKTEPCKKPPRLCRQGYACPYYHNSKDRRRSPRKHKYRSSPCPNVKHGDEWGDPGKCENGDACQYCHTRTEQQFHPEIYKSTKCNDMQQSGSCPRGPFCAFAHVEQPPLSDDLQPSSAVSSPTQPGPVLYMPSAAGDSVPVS
Notes: RNA with constant flanks, vertebrate orthologous sites, ends assumed
All sequences stand within: GGGAGUUCUACAGUCCGACGAUC … CAACAGAGGAUUGAGCAUCA
With `GAAGUUCCCCAUUGUCACUGAGAACCACCAAAUUUGACUUUCACAUUUGGUCUCAGAAUUUAGGUUCCUGCCCUGUUGUUUUUCUUUCUUUUUCUUAAAACAAACAGUUUUCAGAAGUUC` the bound/input enrichment was 0.262 ratio.
For `AAAUAUACUUCAUGCCAUGGACUCCGUAUCGCACGGAUACUUUGAUAGAAUAUGCUUCUUUAGAGGACUUCCAGAACGGACGCCAGCAGACGACGUACAAACUCCCAAACCGAGUGGAUG`, the bound/input enrichment was 0.508 ratio.
`UUUUUAUUGAUCAGGUCUGUAAAUGUGUACUAAAAAAAUCAGAGUUUAUUUAUAAACAUAAAGUUUAUUUAAAGAGAAGGUCUUUUCCUCAAUGAUAUCAUGGUAUGCAUUAAUUCCAUU` has a bound/input enrichment of 0.151 ratio.
`UCUCUACAGUUUUAAAGACACUCCCUUAUAAGGCACUUUGGCUCUUCAUAUAUUUAACCGUAUUUACAUAUCUAUUUUUUAUAAAUAGCAGUAUAAAUUCAAAGGGGACUCCAACCUUUA` has a bound/input enrichment of 0.325 ratio.
With `AGGAAGGAGAAAGAACUGAACAGAUUCUUCCUCCCCCGAAUAAAACCAAAAGGAUUUGGUUUGGGUUCUCUCUUGGAAAACAAAGAUGGCCUUUUCUCUUAAUUGUGUAACUAUCACUGC` the bound/input enrichment was 0.409 ratio.
The bound/input enrichment of `AAGAUGGUGGUUGUACAUUAUUUCAUUUAGAAAAUAUAAAAAUUCAUUUUGUUUUGAAGCUAGGUGUUAAACUGGAAUAGCUCUUAUACCCCAGAGAAUGGGGCAAUUGUGCCCUUCCCU` is reported as 2.12 ratio.
For `UACAAAUGUGUAUCGAAUGCUGGGUGUAACAUUAAACCAUCAUUUAGAAUAGAUGUCGAUUUGUUAUAAUUAAGCUACAAAUAGGUUUCUUUAAACCAGAGAUGCACUGCCCUUGUCUCA`, the bound/input enrichment was 0.422 ratio.
`CUUCCUUCCUUUUCCUUUUUUUCUUUUUUCUUCUCUUUUCUUUCUUUUUUUUUUUUUUGGUAGUUGUUGUUACCCACGCCAUUUUACGUCUCCUUCACUGAAGGGCUAGAGUUUUAACUU` gave a bound/input enrichment of 1.75 ratio.
The bound/input enrichment of `UUCAGGCACAACUGACUGGUUCACAGCAUUCCUUACACAGUUAUCUAUCAAAUGCAAGUGUGGUUAAUUUUCAGGAAACAAGCAGGCAGUCAUCUUUAUCCUGUAACCCAAUUGGAGAUU` is reported as 1.05 ratio.
With `AAAGGAAUAAUCCUGGCUGCUUUUUGCGAGGUAAAGUGUCCCUUGGCAUGUGGUUGAUACCAGCAGCAUCAUCCCUAAUAAGUCAGUGUUUCACUUCUUCCACACGUAGUCCUCUUCAAA` the bound/input enrichment was 0.303 ratio.
With `UGCCCCCCAAGAAUUCAGGACUGGUUUUACCCAUAUACCAAGUAGAUAUGGGACGAACAAUAGACUUGGGCAACCAAGACCAUGAUCGACUCAAGUUUAACUUAUUUUUAUGAGGACUGU` the bound/input enrichment was 0.444 ratio.

Sample 4 — technique: aptamer microarray, sandwich; form: DNA with 2'F-ANA; sample: in vitro; concentration: 200 nM; with: Cy3 exosite-II aptamer, 400 nM; reading: higher = stronger binding; strand: GGTTGGTGTGGTTGG
Target: Prothrombin, mature alpha-thrombin (F2, Homo sapiens, UniProt P00734)
Notes: whole 15-mer aptamer, many near background
`2'F-ANA at 1 2 7 10 11 14 15` — result for “mean fluorescence intensity”: 70 a.u.
`2'F-ANA at 2 3 4 5 6 7 11 13 14 15` — result for “mean fluorescence intensity”: 48.9 a.u.
`2'F-ANA at 1 3 4 5 6 7 10 11 12 14`: “mean fluorescence intensity” 49 a.u.
`2'F-ANA at 2 3 4 5 7 9 10 11 15`: “mean fluorescence intensity” 49.6 a.u.
`2'F-ANA at 3 5 6 11 13 14 15` — result for “mean fluorescence intensity”: 56.9 a.u.
For `2'F-ANA at 1 2 4 5 6 8 10 12 13 15`, “mean fluorescence intensity” read 50 a.u.
`2'F-ANA at 3 4 5 6 7 10 11 12 13 14` — result for “mean fluorescence intensity”: 48 a.u.
Under “mean fluorescence intensity”, `2'F-ANA at 1 3 6 7 12 13 14` is recorded as 108 a.u.
Under “mean fluorescence intensity”, `2'F-ANA at 1 2 3 5 7 8 9 12 13` is recorded as 87.3 a.u.
`2'F-ANA at 3 5 9 10 11 13 14` — result for “mean fluorescence intensity”: 51.2 a.u.
`2'F-ANA at 1 3 6 10 11 12 13 14`: “mean fluorescence intensity” 56.7 a.u.
Under “mean fluorescence intensity”, `2'F-ANA at 1 2 9 10 12 13 14` is recorded as 46.1 a.u.
Under “mean fluorescence intensity”, `2'F-ANA at 1 2 4 5 8 9 10 12` is recorded as 48.6 a.u.
`2'F-ANA at 1 4 5 6 7 8 10 12 14 15`: “mean fluorescence intensity” 46.7 a.u.
`2'F-ANA at 3 4 10 11 13 14`: “mean fluorescence intensity” 200 a.u.
For `2'F-ANA at 1 8 9 10 12 14 15`, “mean fluorescence intensity” read 50 a.u.
For `2'F-ANA at 2 3 4 5 6 7 8 10 11 14 15`, “mean fluorescence intensity” read 50.5 a.u.
`2'F-ANA at 2 3 4 9 12 13 14` — result for “mean fluorescence intensity”: 286 a.u.
Under “mean fluorescence intensity”, `2'F-ANA at 2 5 6 8 13 14 15` is recorded as 66.3 a.u.
For `2'F-ANA at 1 3 6 7 9 10 12 13 15`, “mean fluorescence intensity” read 107 a.u.
`2'F-ANA at 2 4 5 8 9 10 11 12 14` — result for “mean fluorescence intensity”: 48.3 a.u.
Under “mean fluorescence intensity”, `2'F-ANA at 1 2 4 5 7 9 11 12 14 15` is recorded as 48.8 a.u.
`2'F-ANA at 1 2 3 4 5 6 8 9 10 13`: “mean fluorescence intensity” 46.8 a.u.
For `2'F-ANA at 3 6 8 11 13`, “mean fluorescence intensity” read 740 a.u.
`2'F-ANA at 1 3 4 6 7 10 13 14 15` — result for “mean fluorescence intensity”: 57.8 a.u.

A few entries again (sample 1):
With `GCAGGAAUUAAAAACAAAUGGAAAUGCUUCGGAUAGUGGCAGGGGUGGGGGUUGCUAAGGAAAGGGUGGGAUGGGAGUGGGUAAAGAGUU` the log2 enrichment was 1.72.
For `AGUCCUGUGCUACACAUCGUAUGUACCGAAUCGGGAAAAGGAAAAGGGGAAAAGGGGAAAGUAUUAUGUUACGCCGUUCGGAUCUGCACU`, the log2 enrichment was -0.678.
The log2 enrichment of `CCUGUGCUACACAUCGUAUGUACCGAAUCGGGGCCCCCCGGGCCCCCCGGCCCCCCGGGGAAAGUAUUAUGUUACGCCGUUCGGAUCUGC` is reported as -1.01.
`AGUCCUGUGCUACACAUCGUAUGUACCGAAUCGGGGUUUGGGGAAAAAGGGGAGGGGAAAGUAUUAUGUUACGCCGUUCGGAUCUGCACU` has a log2 enrichment of -0.244.
